Measured values gathered from unrelated publications.
A part holds a random share of what one study measured.

Block 1
Target: Interferon regulatory factor 5, full length, phosphomimetic (IRF5, Homo sapiens, UniProt Q13568-2, residues 1-514, K96S/S451D/S453D/S456D/S462D)
Method: protein-binding microarray
Molecule type: double-stranded DNA, one strand shown
Matrix: in vitro
Tested at: 250 nM
Setting: 60-bp whole probe
With: salmon DNA 0.4 mg/ml
Baseline: random background probes
Direction: higher = stronger binding
Constant ends, left off below: GCCTAGCAC … GTCTTGATTCGCTTGACGCTGCTG
Sequence | log fluorescence
CTGAGGCTGCCGTGGCCATGGTGCTAG | -0.715 z-score
TCATTTATGTCCTGTCTAACTGTGCTA | 0.453 z-score
TCATTTCTACTTCTGTTACTGTGCTAG | 1.83 z-score
GACGGTCTCCTTCTCCTGATGTGCTAG | 0.0157 z-score
TCACACACCATTCTCGGACTGTGCTAG | 0.0553 z-score
TCATTCCTCTTTTTTGTACTGTGCTAG | 1.12 z-score
TCAGGTTTGTACACCGCACTGTGCTAG | -0.297 z-score

Block 2
Target: Probable WRKY transcription factor 33, C-terminal DNA-binding domain (WRKY33, Arabidopsis thaliana, UniProt Q8S8P5, residues 346-449)
Method: DNA-protein interaction ELISA
Molecule type: double-stranded DNA, one strand shown
Matrix: in vitro, bacterial lysate
Tested at: not given
Setting: whole dsDNA probe, crude lysate protein
Baseline: highest signal in screen
Direction: higher = stronger binding
Target sequence (chain): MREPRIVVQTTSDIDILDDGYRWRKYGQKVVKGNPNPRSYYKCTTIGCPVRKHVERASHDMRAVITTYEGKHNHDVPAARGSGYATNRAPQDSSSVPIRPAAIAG
Sequence | relative absorbance
AAAAAATCGGGCCCCGTTAGCACTCTAAAA | 32.8 % of maximum
AAAAAAAAGCTTCGGAGTCTTGAGAAAAAA | 71.7 % of maximum
AAAAAATGGTTTCAATTTTCCGTCCGAAAA | 32.2 % of maximum
AAAAAACTTCTAGTTTATGCTTCCGTAAAA | 33.3 % of maximum
AAAAAACTACCTCTACTCTAGCCTTAAAAA | 27.8 % of maximum
AAAAAATTCTTAGTTAGATTCACCTCAAAA | 39.8 % of maximum
AAAAAAATTACGCGGGATCGCCAAAA | 42.3 % of maximum
AAAAAAAATACTGCGCACTTGCACTCAAAA | 44.5 % of maximum

Block 3
Target: Sal-like protein 4, full length isoform A (SALL4, Homo sapiens, UniProt Q9UJQ4, residues 1-1053)
UniProt Q9UJQ4, sequence (whole entry, looked up): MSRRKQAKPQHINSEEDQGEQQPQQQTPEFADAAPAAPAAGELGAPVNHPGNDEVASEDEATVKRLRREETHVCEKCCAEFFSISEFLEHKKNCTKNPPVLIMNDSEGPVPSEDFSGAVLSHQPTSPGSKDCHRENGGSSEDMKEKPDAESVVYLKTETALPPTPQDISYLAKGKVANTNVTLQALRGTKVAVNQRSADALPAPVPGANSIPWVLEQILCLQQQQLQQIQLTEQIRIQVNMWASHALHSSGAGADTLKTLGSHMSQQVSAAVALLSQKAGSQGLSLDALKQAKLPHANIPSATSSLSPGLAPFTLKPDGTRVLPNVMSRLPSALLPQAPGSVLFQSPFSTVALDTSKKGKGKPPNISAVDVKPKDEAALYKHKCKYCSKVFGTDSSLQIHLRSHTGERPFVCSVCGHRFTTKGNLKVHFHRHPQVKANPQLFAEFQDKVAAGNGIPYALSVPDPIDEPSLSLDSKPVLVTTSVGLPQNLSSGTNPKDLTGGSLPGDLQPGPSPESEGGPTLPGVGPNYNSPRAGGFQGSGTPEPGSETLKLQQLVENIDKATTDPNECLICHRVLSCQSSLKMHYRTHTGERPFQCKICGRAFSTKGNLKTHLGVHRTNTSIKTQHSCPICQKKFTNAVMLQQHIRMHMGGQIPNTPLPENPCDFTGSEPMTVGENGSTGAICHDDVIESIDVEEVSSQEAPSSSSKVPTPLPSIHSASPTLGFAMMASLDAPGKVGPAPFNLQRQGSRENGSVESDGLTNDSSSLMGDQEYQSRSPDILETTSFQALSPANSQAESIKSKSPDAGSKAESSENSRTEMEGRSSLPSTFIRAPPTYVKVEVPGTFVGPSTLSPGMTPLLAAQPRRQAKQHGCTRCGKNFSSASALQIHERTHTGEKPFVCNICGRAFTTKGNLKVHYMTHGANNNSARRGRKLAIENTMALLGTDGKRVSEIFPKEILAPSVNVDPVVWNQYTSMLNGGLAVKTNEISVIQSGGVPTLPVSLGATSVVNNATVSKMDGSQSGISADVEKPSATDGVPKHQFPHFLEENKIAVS
Method: universal PBM
Molecule type: double-stranded DNA, one strand shown
Matrix: in vitro
Tested at: 600 nM
Setting: 8-mer, flanks averaged, mean of replicates
Direction: higher = stronger binding
Sequence | E-score
AAGACGGC | -0.19
GGAGTTCA | -0.047
GAGCCAGC | -0.232
AGTACGCC | -0.179
CCGCTTCC | -0.264
AGTGCCAA | -0.0294
CGAAGTAG | 0.00958

Other studies, line by line
Substance | target | assay | test system | setting | how to read | quantity | value
PhoQ, residues 284 288 289 292 302 303 GANMMA | PhoP, residues 12 14 15 18 19 STWGI (Escherichia coli, UniProt P23836) | Sort-seq, item: YFP reporter | E. coli | PhoQ-PhoP variant library, with: 10 µM Mg2+ | baseline: high Mg2+ state, higher = stronger signaling | fold induction | 0.615

Repeated from above (block 3):
Sequence | E-score
AAGACGGC | -0.19
GGAGTTCA | -0.047
GAGCCAGC | -0.232
